# Published values collected from several papers.
# Lines come from different studies, so protocols differ. “And” joins repeats or separate records; there may be more than shown.
# Target: Mitogen-activated protein kinase 13 (MAPK13, Homo sapiens, UniProt O15264)
# Sequence (O15264 1-365, as in one of the studies): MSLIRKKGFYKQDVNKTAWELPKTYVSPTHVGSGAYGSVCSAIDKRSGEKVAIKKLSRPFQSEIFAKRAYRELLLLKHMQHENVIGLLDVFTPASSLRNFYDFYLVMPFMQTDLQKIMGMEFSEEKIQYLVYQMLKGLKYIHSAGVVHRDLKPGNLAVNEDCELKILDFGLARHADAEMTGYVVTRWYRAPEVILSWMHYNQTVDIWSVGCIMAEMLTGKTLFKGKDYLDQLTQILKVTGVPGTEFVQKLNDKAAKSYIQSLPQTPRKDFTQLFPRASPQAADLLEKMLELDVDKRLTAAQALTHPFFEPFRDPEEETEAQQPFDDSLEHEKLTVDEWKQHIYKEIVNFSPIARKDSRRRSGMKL
SMILES,test,setting,how to read,quantity,result
O=C(Cc1ccc(OCc2ccccc2)cc1)NC1(C(=O)O)CCN(C(=O)c2ccc(-c3cccc(Cl)c3)cc2)CC1,"enzyme activity, inhibitor",10 µM,,activity vs control,113%
Cc1cccc(-c2ccc3nc(NC(=O)C4CCCCC4)nn3c2)c1,"enzyme activity, Dundee kinase panel",10 µM,,remaining activity,78%
O=C=[N][Ru-4]123([n]4c5ccc(O)cc5c5c6c(c7cc(F)c[n+]1c7c54)C(=O)NC6=O)[S+]1CC[S+]2CC[S+]3CC1 (centres unmarked),enzyme activity,"100 nM, human enzyme, together with: 10 µM ATP",baseline: untreated,remaining activity,91%
C=CC(=O)N1CCc2ccc(-n3c(=O)ccc4cnc5ccc(-c6cnn(C)c6)cc5c43)cc21,KINOMEscan,1 µM,baseline: DMSO control,remaining binding,96%
C=CC(=O)N1CCCC(n2c(=O)c3ncccc3n(Cc3ccc(Oc4ccccc4)cc3)c2=O)C1 (centres unmarked),"cell-free assay, competition with immobilised ligand",1 µM,,remaining binding,95%
CNC(=O)C[C@H](Cc1ccc(C#N)cc1)NC(=O)c1cc(-c2ccc(CN[C@H](C)c3ccc(C)cc3)o2)ccc1Cl,"enzyme activity, inhibitor",1 µM,,activity vs control,104%
CN1CC[C@@H](COc2cnc(C#N)cc2-c2ccn3nc(NC(=O)C4CC4)cc3c2)C1,"enzyme activity, inhibitor",1 µM,,inhibition,-1%
Cc1cccc(O[C@H]2CCC[C@@H](C(C)CNCc3ccncc3)C2)c1 (relative stereo),"enzyme activity, inhibitor",10 µM,,inhibition,-5%
Nc1ncc(-c2cc(-c3cnn(CC(F)(F)F)c3)ncc2F)nc1C(=O)NC1CNCC(F)C1 (centres unmarked),enzyme activity,1 µM,baseline: DMSO control,remaining activity,99.6%
NC(=O)C[C@H]1CCc2sc3ncnc(O[C@H]4CC[C@H](N5CCOCC5)CC4)c3c21,"enzyme activity, inhibitor",10 µM,,inhibition,0%
Cc1cccc(-c2ccc3nc(NC(=O)C4CCCO4)nn3c2)c1 (centres unmarked),"enzyme activity, Dundee kinase panel",10 µM,,remaining activity,86%
Nc1ncc2c(n1)-c1c([nH]c3ccc(C4=CCOCC4)cc13)CCC2,"binding, competition with immobilised ligand",1 µM,,remaining binding,100%
CNC(=O)C1CCN(c2cc(C)c(F)cc2NC(=O)c2ccc(-c3cc(O)ccc3C)c(C)c2)CC1,"binding, competition with immobilised ligand",1 µM,,remaining binding,99%
CCN1CCN(Cc2ccc(C(=O)Nc3ccc(C)c(NCc4cnc5[nH]ccc5c4OC)c3)cc2C(F)(F)F)CC1,"binding, competition with immobilised ligand",1 µM,,remaining binding,100%
COc1cc(Nc2nc(C)cc(-c3cnn4nc(OC)ccc34)n2)cc(C(F)(F)F)c1,KINOMEscan,"1 µM, p38-delta",baseline: DMSO,remaining binding,95%
C=CC(=O)Nc1cccc(-c2cnc3[nH]cc(C(=O)NC(C)(C)C)c3n2)c1,kinase activity,0.1 µM,,inhibition,2% and 3%
COc1ccc(C(=O)/C=C/c2ccccc2-c2c[nH]c3ccc(C#N)cc23)c(O)c1,"enzyme activity, inhibitor",20 µM,,inhibition,-1%

# For quick reference, copied from above:
SMILES,test,setting,how to read,quantity,result
C=CC(=O)N1CCc2ccc(-n3c(=O)ccc4cnc5ccc(-c6cnn(C)c6)cc5c43)cc21,KINOMEscan,1 µM,baseline: DMSO control,remaining binding,96%
C=CC(=O)N1CCCC(n2c(=O)c3ncccc3n(Cc3ccc(Oc4ccccc4)cc3)c2=O)C1 (centres unmarked),"cell-free assay, competition with immobilised ligand",1 µM,,remaining binding,95%
